Results of several laboratories.
Numbered parts are unrelated; each lists some results of a single study. Changes are numbered by the printed parent chain.
Chain of UniProt P50613 (whole entry, looked up): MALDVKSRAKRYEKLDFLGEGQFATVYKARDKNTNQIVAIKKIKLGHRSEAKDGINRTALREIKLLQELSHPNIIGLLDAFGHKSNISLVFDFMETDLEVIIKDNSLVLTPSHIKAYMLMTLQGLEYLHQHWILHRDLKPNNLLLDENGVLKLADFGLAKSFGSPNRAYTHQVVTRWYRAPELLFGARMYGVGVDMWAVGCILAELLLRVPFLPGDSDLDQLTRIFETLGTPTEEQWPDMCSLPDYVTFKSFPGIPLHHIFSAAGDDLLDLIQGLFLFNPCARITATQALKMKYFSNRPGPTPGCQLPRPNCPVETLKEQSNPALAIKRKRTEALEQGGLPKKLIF

Sample 1 — target: UBE2J2 UBC core domain (UniProt Q8N2K1); method: yeast two-hybrid; matrix: yeast; setting: mostly zero background; baseline: not given; reading: higher = stronger interaction
Chain of UniProt Q8N2K1 (whole entry, looked up): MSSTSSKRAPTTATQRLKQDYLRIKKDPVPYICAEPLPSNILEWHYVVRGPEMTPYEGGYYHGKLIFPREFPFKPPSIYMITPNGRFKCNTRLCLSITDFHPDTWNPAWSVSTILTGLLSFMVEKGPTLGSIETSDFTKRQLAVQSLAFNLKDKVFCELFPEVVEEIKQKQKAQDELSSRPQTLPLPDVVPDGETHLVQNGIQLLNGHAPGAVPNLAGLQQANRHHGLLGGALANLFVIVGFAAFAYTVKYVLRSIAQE
B1: RNF17 RING domain (UniProt Q9BXT8); chain SQPWGAAEIQCTRCGRRVSRSSGHHCELQCGHAFCELCLLMTEECTTIICPDCEVATAVNTRQR
B2: TRIM47 RING domain (UniProt Q96LD4); chain MDGSGPFSCPICLEPLREPVTLPCGHNFCLACLGALWPHRGASGAGGPGGAARCPLCQEPFPDGLQLR
B3: TRIM74 RING domain (UniProt Q86UV6); chain SLLELEDWLQCPICLEVFKESLMLQCGHSYCKGCLVSLSYHLDTKVRCPMCWQVVDGSSSLP
B4: RNF130 RING domain (UniProt Q86XS8); chain DKETDPDFDHCAVCIESYKQNDVVRILPCKHVFHKSCVDPWLSEHCTCPMCKLNILKALGIV
B5: NHLRC1 RING domain (UniProt Q6VVB1); chain MREAEISLLECKVCFEKFGHRQQRRPRNLSCGHVVCLACVAALAHPRTLALECPFCRRACRGCDTSD
`B1 (RNF17 RING domain)`: “lacZ reporter activity” 0.
For `GSEEEEIPFRCFICRQAFQNPVVTKCRHYFCESCALEHFRATPRCYICDQPTGGIFNPA (RNF113B RING domain (UniProt Q8IZP6))`, “lacZ reporter activity” read 6750.
`B2 (TRIM47 RING domain)`: “lacZ reporter activity” 0.
For `MEEMEEELKCPVCGSFYREPIILPCSHNLCQACARNILVQTPESESPQSHRAAGSGVSDY (TRIM9 RING domain (UniProt Q9C026))`, “lacZ reporter activity” read 0.
Under “lacZ reporter activity”, `B3 (TRIM74 RING domain)` is recorded as 0.
Under “lacZ reporter activity”, `AAQLLEEKLTCAICLGLYQDPVTLPCGHNFCGACIRDWWDRCGKACPECREPFPDGAELR (TRIM65 RING domain (UniProt Q6PJ69))` is recorded as 2430.
`B4 (RNF130 RING domain)` — result for “lacZ reporter activity”: 0.
For `B5 (NHLRC1 RING domain)`, “lacZ reporter activity” read 0.

Sample 2 — method: RNA Bind-n-Seq; form: RNA; matrix: in vitro; concentration: 20 nM; setting: 6-mer, flanks averaged, single round; together with: 150 mM KCl; baseline: input library; reading: higher = stronger binding
Target: TAR DNA-binding protein 43, full length, His tag (TARDBP, Homo sapiens, UniProt Q13148, residues 1-414)
Under “6-mer enrichment (R)”, `UUUAAG` is recorded as 0.66.
`UAGUGG` — result for “6-mer enrichment (R)”: 1.56.
`CUAAGC`: “6-mer enrichment (R)” 0.634.
`UGUCAG` — result for “6-mer enrichment (R)”: 0.85.
Under “6-mer enrichment (R)”, `CUCCCA` is recorded as 0.669.
`GGGAAU` — result for “6-mer enrichment (R)”: 2.01.
For `AAUAGC`, “6-mer enrichment (R)” read 0.683.
`GGCGCG` — result for “6-mer enrichment (R)”: 3.76.

Sample 3 — target: CCNB3, cyclin fold, Cln2 fusion (human); method: yeast growth competition, sequencing; matrix: yeast; setting: weak parent motif; baseline: not given; reading: higher = stronger binding
Parent: PKMYT1 docking peptide (human); SFEPRNLLSLFED; partner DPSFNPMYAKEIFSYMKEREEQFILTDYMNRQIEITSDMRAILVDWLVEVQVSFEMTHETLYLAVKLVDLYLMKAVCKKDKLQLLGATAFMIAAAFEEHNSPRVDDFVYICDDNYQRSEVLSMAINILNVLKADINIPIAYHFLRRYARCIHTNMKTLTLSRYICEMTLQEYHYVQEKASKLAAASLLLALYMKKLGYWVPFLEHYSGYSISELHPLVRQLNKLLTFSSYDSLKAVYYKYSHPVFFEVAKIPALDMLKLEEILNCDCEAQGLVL
`SVEPRNLLSLFED [F2V]` — result for “normalised enrichment score”: -0.0057.
`SFEPRNLLYLFED [S9Y]`: “normalised enrichment score” 0.685.
`SFEPRNLLSLFND [E12N]` — result for “normalised enrichment score”: 0.587.
`SFEPRNLKSLFED [L8K]`: “normalised enrichment score” 0.736.
`SFEPRNLLSLFRD [E12R]` — result for “normalised enrichment score”: 0.474.
`SFIPRNLLSLFED [E3I]`: “normalised enrichment score” 0.209.
`SFEPRNLLELFED [S9E]`: “normalised enrichment score” 0.568.
`FFEPRNLLSLFED [S1F]` — result for “normalised enrichment score”: 0.567.

Further values, each from its own experiment
`Cc1cncc2cccc(S(=O)(=O)N3CCCN(C(=O)CN)C[C@@H]3C)c12` has a remaining activity of 98% (Cyclin-dependent kinase 7 (CDK7, Homo sapiens, UniProt P50613); enzyme activity, inhibitor; 0.5 µM; baseline: control).

A few entries again (sample 2):
`UAGUGG` — result for “6-mer enrichment (R)”: 1.56.
`CUAAGC`: “6-mer enrichment (R)” 0.634.
